Measured values collected from several papers.
Lines come from different studies, so protocols differ. “And” joins repeats or separate records; there may be more than shown.
T1: itself; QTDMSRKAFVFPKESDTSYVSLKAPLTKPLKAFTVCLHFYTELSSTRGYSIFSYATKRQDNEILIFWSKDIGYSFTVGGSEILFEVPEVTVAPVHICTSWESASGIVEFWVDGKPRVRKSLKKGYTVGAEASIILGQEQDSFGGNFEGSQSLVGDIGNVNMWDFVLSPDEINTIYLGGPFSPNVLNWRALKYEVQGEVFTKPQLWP
T2: itself; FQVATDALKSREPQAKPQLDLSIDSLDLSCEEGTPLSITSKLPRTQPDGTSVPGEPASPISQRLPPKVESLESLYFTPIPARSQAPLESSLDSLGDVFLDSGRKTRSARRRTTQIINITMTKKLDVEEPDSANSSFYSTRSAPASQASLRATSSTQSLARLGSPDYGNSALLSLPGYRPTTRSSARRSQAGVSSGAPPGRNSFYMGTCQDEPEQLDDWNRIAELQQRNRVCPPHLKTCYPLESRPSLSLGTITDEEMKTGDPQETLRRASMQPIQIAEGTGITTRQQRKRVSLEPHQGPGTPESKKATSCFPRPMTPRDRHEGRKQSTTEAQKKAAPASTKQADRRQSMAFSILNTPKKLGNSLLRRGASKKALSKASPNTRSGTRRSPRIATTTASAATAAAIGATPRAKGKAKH
T3: itself; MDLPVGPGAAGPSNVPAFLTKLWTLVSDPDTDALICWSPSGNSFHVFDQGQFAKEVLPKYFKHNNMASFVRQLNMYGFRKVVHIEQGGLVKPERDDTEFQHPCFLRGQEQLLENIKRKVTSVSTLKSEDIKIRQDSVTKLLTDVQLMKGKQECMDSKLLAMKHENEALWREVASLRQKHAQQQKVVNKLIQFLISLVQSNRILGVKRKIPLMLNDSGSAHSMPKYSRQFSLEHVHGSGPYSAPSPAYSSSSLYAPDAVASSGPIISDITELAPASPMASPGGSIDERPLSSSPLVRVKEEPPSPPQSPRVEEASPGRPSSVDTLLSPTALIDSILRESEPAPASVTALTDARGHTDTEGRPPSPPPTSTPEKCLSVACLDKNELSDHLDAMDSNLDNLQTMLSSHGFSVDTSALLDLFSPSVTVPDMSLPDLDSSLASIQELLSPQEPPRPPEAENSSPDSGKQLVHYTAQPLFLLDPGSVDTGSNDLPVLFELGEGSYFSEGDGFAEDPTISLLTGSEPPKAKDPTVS
T4: itself; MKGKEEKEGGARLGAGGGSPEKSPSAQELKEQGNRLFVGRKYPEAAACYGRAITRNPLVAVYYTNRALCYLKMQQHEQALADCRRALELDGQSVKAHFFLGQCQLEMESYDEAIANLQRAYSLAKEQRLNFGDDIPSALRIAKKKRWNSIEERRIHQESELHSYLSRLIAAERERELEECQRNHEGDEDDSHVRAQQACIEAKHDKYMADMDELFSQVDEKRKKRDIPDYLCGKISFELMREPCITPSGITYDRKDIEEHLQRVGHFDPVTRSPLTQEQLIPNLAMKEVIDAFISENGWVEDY
T5: itself; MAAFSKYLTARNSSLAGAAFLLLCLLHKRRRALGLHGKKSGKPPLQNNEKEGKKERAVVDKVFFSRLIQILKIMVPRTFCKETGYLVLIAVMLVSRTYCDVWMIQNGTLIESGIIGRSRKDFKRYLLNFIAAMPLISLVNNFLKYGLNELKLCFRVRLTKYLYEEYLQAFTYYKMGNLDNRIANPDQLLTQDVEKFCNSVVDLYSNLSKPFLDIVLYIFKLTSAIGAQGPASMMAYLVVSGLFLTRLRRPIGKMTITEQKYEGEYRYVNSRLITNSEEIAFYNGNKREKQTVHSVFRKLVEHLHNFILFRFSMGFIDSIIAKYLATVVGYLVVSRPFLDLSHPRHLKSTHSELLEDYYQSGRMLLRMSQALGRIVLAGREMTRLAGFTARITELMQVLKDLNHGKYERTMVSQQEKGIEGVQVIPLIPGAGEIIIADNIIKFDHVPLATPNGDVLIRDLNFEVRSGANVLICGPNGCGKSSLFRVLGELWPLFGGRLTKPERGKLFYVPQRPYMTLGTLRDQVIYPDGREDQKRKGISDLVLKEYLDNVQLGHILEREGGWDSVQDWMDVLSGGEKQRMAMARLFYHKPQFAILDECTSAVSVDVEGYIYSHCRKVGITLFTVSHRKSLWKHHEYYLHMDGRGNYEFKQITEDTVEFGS
B1: CRP pentamer (x, UniProt P02741); chain QTDMSRKAFVFPKESDTSYVSLKAPLTKPLKAFTVCLHFYTELSSTRGYSIFSYATKRQDNEILIFWSKDIGYSFTVGGSEILFEVPEVTVAPVHICTSWESASGIVEFWVDGKPRVRKSLKKGYTVGAEASIILGQEQDSFGGNFEGSQSLVGDIGNVNMWDFVLSPDEINTIYLGGPFSPNVLNWRALKYEVQGEVFTKPQLWP
B2: NUMA1 1700-2115 (Homo sapiens, UniProt Q14980); chain FQVATDALKSREPQAKPQLDLSIDSLDLSCEEGTPLSITSKLPRTQPDGTSVPGEPASPISQRLPPKVESLESLYFTPIPARSQAPLESSLDSLGDVFLDSGRKTRSARRRTTQIINITMTKKLDVEEPDSANSSFYSTRSAPASQASLRATSSTQSLARLGSPDYGNSALLSLPGYRPTTRSSARRSQAGVSSGAPPGRNSFYMGTCQDEPEQLDDWNRIAELQQRNRVCPPHLKTCYPLESRPSLSLGTITDEEMKTGDPQETLRRASMQPIQIAEGTGITTRQQRKRVSLEPHQGPGTPESKKATSCFPRPMTPRDRHEGRKQSTTEAQKKAAPASTKQADRRQSMAFSILNTPKKLGNSLLRRGASKKALSKASPNTRSGTRRSPRIATTTASAATAAAIGATPRAKGKAKH
B3: STUB1 (Homo sapiens, UniProt Q9UNE7); chain MKGKEEKEGGARLGAGGGSPEKSPSAQELKEQGNRLFVGRKYPEAAACYGRAITRNPLVAVYYTNRALCYLKMQQHEQALADCRRALELDGQSVKAHFFLGQCQLEMESYDEAIANLQRAYSLAKEQRLNFGDDIPSALRIAKKKRWNSIEERRIHQESELHSYLSRLIAAERERELEECQRNHEGDEDDSHVRAQQACIEAKHDKYMADMDELFSQVDEKRKKRDIPDYLCGKISFELMREPCITPSGITYDRKDIEEHLQRVGHFDPVTRSPLTQEQLIPNLAMKEVIDAFISENGWVEDY
B4: ABCD3 (Homo sapiens, UniProt P28288); chain MAAFSKYLTARNSSLAGAAFLLLCLLHKRRRALGLHGKKSGKPPLQNNEKEGKKERAVVDKVFFSRLIQILKIMVPRTFCKETGYLVLIAVMLVSRTYCDVWMIQNGTLIESGIIGRSRKDFKRYLLNFIAAMPLISLVNNFLKYGLNELKLCFRVRLTKYLYEEYLQAFTYYKMGNLDNRIANPDQLLTQDVEKFCNSVVDLYSNLSKPFLDIVLYIFKLTSAIGAQGPASMMAYLVVSGLFLTRLRRPIGKMTITEQKYEGEYRYVNSRLITNSEEIAFYNGNKREKQTVHSVFRKLVEHLHNFILFRFSMGFIDSIIAKYLATVVGYLVVSRPFLDLSHPRHLKSTHSELLEDYYQSGRMLLRMSQALGRIVLAGREMTRLAGFTARITELMQVLKDLNHGKYERTMVSQQEKGIEGVQVIPLIPGAGEIIIADNIIKFDHVPLATPNGDVLIRDLNFEVRSGANVLICGPNGCGKSSLFRVLGELWPLFGGRLTKPERGKLFYVPQRPYMTLGTLRDQVIYPDGREDQKRKGISDLVLKEYLDNVQLGHILEREGGWDSVQDWMDVLSGGEKQRMAMARLFYHKPQFAILDECTSAVSVDVEGYIYSHCRKVGITLFTVSHRKSLWKHHEYYLHMDGRGNYEFKQITEDTVEFGS
UniProt P00847, sequence (whole entry, looked up): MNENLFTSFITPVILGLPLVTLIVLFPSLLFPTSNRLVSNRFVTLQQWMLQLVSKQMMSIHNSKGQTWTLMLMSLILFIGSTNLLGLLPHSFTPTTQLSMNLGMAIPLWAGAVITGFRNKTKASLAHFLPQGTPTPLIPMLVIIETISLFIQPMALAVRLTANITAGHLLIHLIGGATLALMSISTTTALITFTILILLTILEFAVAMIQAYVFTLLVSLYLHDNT
UniProt Q9UHD2, sequence (whole entry, looked up): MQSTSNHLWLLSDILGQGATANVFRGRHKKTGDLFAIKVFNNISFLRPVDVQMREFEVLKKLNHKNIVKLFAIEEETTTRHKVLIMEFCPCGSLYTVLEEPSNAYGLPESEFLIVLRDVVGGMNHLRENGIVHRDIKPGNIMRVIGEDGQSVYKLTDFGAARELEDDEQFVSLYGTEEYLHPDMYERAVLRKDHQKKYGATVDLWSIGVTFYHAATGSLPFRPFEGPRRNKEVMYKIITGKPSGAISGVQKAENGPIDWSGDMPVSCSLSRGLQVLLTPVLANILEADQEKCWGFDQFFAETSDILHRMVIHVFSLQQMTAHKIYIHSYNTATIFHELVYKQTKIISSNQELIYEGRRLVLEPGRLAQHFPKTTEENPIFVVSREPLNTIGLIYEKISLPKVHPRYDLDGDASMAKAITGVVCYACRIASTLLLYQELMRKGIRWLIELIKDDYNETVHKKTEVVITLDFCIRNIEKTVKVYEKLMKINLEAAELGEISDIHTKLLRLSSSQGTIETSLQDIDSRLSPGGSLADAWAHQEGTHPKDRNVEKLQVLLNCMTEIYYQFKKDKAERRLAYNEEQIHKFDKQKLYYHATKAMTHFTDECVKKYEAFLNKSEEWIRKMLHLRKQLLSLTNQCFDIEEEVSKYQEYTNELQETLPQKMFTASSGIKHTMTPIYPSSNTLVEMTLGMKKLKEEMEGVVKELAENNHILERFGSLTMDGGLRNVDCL
UniProt P26901, sequence (whole entry, looked up): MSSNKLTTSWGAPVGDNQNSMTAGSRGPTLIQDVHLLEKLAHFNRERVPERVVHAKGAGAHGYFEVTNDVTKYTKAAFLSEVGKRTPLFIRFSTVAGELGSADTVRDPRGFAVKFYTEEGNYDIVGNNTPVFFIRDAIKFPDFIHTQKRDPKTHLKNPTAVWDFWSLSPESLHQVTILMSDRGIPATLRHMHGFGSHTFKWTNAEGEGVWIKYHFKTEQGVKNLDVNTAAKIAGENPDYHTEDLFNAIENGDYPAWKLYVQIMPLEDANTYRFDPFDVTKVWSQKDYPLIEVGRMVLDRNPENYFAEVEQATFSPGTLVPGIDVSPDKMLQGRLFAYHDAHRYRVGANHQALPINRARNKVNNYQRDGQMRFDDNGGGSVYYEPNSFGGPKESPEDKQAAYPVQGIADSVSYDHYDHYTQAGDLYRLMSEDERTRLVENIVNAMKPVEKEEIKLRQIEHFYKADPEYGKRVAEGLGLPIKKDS
UniProt P02649, sequence (whole entry, looked up): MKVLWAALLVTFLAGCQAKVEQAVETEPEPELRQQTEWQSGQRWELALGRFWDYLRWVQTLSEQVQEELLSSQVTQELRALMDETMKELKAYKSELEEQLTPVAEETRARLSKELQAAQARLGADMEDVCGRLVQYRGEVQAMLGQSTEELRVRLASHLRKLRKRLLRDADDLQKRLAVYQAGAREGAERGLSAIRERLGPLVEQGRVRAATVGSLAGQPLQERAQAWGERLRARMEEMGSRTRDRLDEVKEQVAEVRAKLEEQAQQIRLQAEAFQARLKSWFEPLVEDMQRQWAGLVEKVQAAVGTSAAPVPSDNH

Under “subunits per oligomer”, `comFB (Thermoanaerobacter brockii)` is recorded as 2 and 4 (itself; mass photometry; without c-di-GMP).
For `UDP-2,3-diacylglucosamine hydrolase (Caulobacter crescentus)`, “subunits per oligomer” read 2 (itself; sedimentation equilibrium AUC).
`B1 (CRP pentamer)` — result for “subunits per oligomer”: 5 (T1, itself; cryo-EM).
For `ALDH7A1 fragment R441C (Homo sapiens)`, “subunits per oligomer” read 4 (itself; AUC; with: NAD 1 mM).
Under “subunits per oligomer”, `CAMK2D F368A/Q407A (Homo sapiens)` is recorded as 2 (itself; mass photometry).
Under “subunits per oligomer”, `SIR2 (Paenibacillus sp.)` is recorded as 12 (itself; AUC).
`ACAT1 fragment, pY407 (Homo sapiens)` — result for “subunits per oligomer”: 4 (itself; cross-linking; phosphorylated, wild type).
`clcA fragment C85A/H234C/I422A/L423A/I426A/L430A/L434A (Escherichia coli)`: “subunits per oligomer” 2 (itself; SEC).
For `gene 82 (mycobacteriophage)`, “subunits per oligomer” read 3 (itself; crystal structure).
`EutT (Listeria monocytogenes)` — result for “subunits per oligomer”: 4 (itself; SEC).
For `sodN mature E17A/R47A (Streptomyces coelicolor)`, “subunits per oligomer” read 3 and 6 (itself; SEC).
`popZ fragment (Caulobacter crescentus)` — result for “subunits per oligomer”: 6 (itself; mass photometry; 250 nM, no MgCl2).
Under “subunits per oligomer”, `Maackia amurensis mitogenic lectin (Maackia amurensis)` is recorded as 2 (itself; nonreducing SDS-PAGE).
`Gl2 bHLH domain (Gossypium hirsutum)` — result for “subunits per oligomer”: 4 (itself; SEC-MALS).
`SULT2A1 fragment (Homo sapiens)` — result for “subunits per oligomer”: 2 (itself; SEC).
For `comFB (Treponema denticola)`, “subunits per oligomer” read 2 (itself; SEC-MALS).
`Tln1 fragment (Mus musculus)` — result for “subunits per oligomer”: 2 (itself; SEC-MALS).
For `GCN2 HisRS-CTD (Chaetomium thermophilum)`, “subunits per oligomer” read 2 (itself; SEC-MALS).
`sodN mature R47A (Streptomyces coelicolor)`: “subunits per oligomer” 6 (itself; ESI-MS; denaturing conditions).
`ZBTB5 fragment D68K/D98K (Homo sapiens)`: “subunits per oligomer” 2 (itself; SEC, mass photometry).
For `CENPE fragment (Homo sapiens)`, “subunits per oligomer” read 2 (itself; SEC-MALS).
For `tas3 fragment (Schizosaccharomyces pombe)`, “subunits per oligomer” read 3 (itself; SEC).
`sarcolamban 33 aa peptide (Daphnia pulex)`: “subunits per oligomer” 4 (itself; SDS-PAGE).
`pAgo-associated nuclease fragment D298A (Escherichia coli)` — result for “subunits per oligomer”: 2 (itself; SEC).
Under “subunits per oligomer”, `NUTF2 (Homo sapiens, UniProt P61970)` is recorded as 2 (itself; native MS; not purified).
`MXAN_1565 GAF-AAA+ domains (Myxococcus xanthus)` — result for “subunits per oligomer”: 2 (itself; cryo-EM).
`B2 (NUMA1 1700-2115)`: “subunits per oligomer” greater than 2 (T2, itself; mass photometry).
`bioE (Elizabethkingia meningoseptica)` — result for “subunits per oligomer”: 2 (itself; mass photometry).
For `HSF1 (Homo sapiens, UniProt Q00613)`, “subunits per oligomer” read 3 (T3, itself; cross-linking; PBMC).
Under “subunits per oligomer”, `popZ del129-134 (Caulobacter crescentus)` is recorded as 3 (itself; mass photometry; 250 nM).
`cyanophycin synthetase 2` — result for “subunits per oligomer”: 6 (itself; cryo-EM).
`GAPDH fragment, leucine-F covalently linked (Homo sapiens)`: “subunits per oligomer” 4 (itself; crystal structure).
`MBP/MGM101 fragment (Saccharomyces cerevisiae)` — result for “subunits per oligomer”: 19 (itself; mass photometry; uncleaved fusion protein, no DNA).
Under “subunits per oligomer”, `EPAS1/ARNT bHLH/PAS domains (Homo sapiens)` is recorded as 2 (itself; SEC-MALS).
`argC crTP domain plus ArgC (Paulinella chromatophora)`: “subunits per oligomer” 2 (itself; SAXS).
`LECA (Pisum sativum)` — result for “subunits per oligomer”: 2 (itself; SAXS; 65 °C).
For `CAMK2D C399R/H439R (Homo sapiens)`, “subunits per oligomer” read 6 (itself; mass photometry).
For `aceF catalytic domain , homotrimer (Escherichia coli)`, “subunits per oligomer” read 3 (itself; AUC).
Under “subunits per oligomer”, `ccmK2 fragment H75N/H76N/H82N (Synechococcus elongatus)` is recorded as 6 (itself; SEC).
`FOXM1 (Homo sapiens)` — result for “subunits per oligomer”: 2 (itself; non-reducing SDS-PAGE immunoblot; U2OS, lysate; not purified).
`aspartyl-tRNA synthetase (Entamoeba histolytica)`: “subunits per oligomer” 2 (itself; crystal structure).
`SIR2 Y94A (Paenibacillus sp.)`: “subunits per oligomer” 2 (itself; SEC, AUC; mutant).
For `F1Fo-ATP synthase (Bos taurus, UniProt P00847)`, “subunits per oligomer” read 2 (itself; native gel, EMSA, SEC).
For `B3 (STUB1)`, “subunits per oligomer” read 2 (T4, itself; mass photometry; pH 7.4).
`katA dimer (Bacillus subtilis, UniProt P26901)`: “subunits per oligomer” 2 (itself; SEC).
Under “subunits per oligomer”, `APOE apoE4 (Homo sapiens, UniProt P02649)` is recorded as 4 (itself; AUC; 30 µM).
`P2-RANTES fragment` — result for “subunits per oligomer”: 4 (itself; crystal structure).
`VPS1 I649K (Saccharomyces cerevisiae)` — result for “subunits per oligomer”: 2 (itself; cross-linking).
`popZ (Caulobacter crescentus)`: “subunits per oligomer” 3 and 6 (itself; mass photometry; 250 nM).
`ALD1 fragment (Toxoplasma gondii)` — result for “subunits per oligomer”: 4 (itself; crystal structure).
For `Cas5 fragment Q38W (Moraxella)`, “subunits per oligomer” read 2 (itself; SEC-MALS).
For `eutT ATP:Co(I)rrinoid adenosyltransferase (Listeria monocytogenes)`, “subunits per oligomer” read 4 (itself; SEC).
`TBK1, pS172 (human, UniProt Q9UHD2)`: “subunits per oligomer” 2 (itself; SEC-MALS).
Under “subunits per oligomer”, `concanavalin A` is recorded as 4 (itself; native MS).
For `B4 (ABCD3)`, “subunits per oligomer” read 2 (T5, itself; cryo-EM).
Under “subunits per oligomer”, `ERF DNA-binding domain C72S (Homo sapiens)` is recorded as 4 (itself; AUC; with: DNA).
